Assay results gathered from unrelated publications.
Protocols differ between the studies behind these lines. Values joined by “and” are separate records of one study, mostly repeats; a detail may differ. ± marks the error that the study gave.
YWHAZ: 14-3-3 protein zeta/delta (YWHAZ, Homo sapiens, UniProt P63104)
Chain of UniProt P63104 (whole entry, looked up): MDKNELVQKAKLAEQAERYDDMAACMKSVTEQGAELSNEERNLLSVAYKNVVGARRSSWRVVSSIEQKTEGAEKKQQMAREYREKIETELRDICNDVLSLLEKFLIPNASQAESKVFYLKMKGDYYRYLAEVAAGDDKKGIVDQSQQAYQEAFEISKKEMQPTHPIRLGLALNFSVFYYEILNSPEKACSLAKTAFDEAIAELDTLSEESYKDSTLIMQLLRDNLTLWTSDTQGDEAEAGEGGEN
LRP6 E1 domain: Low-density lipoprotein receptor-related protein 6, E1 domain (LRP6, Homo sapiens, UniProt O75581)
Chain of UniProt O75581 (whole entry, looked up): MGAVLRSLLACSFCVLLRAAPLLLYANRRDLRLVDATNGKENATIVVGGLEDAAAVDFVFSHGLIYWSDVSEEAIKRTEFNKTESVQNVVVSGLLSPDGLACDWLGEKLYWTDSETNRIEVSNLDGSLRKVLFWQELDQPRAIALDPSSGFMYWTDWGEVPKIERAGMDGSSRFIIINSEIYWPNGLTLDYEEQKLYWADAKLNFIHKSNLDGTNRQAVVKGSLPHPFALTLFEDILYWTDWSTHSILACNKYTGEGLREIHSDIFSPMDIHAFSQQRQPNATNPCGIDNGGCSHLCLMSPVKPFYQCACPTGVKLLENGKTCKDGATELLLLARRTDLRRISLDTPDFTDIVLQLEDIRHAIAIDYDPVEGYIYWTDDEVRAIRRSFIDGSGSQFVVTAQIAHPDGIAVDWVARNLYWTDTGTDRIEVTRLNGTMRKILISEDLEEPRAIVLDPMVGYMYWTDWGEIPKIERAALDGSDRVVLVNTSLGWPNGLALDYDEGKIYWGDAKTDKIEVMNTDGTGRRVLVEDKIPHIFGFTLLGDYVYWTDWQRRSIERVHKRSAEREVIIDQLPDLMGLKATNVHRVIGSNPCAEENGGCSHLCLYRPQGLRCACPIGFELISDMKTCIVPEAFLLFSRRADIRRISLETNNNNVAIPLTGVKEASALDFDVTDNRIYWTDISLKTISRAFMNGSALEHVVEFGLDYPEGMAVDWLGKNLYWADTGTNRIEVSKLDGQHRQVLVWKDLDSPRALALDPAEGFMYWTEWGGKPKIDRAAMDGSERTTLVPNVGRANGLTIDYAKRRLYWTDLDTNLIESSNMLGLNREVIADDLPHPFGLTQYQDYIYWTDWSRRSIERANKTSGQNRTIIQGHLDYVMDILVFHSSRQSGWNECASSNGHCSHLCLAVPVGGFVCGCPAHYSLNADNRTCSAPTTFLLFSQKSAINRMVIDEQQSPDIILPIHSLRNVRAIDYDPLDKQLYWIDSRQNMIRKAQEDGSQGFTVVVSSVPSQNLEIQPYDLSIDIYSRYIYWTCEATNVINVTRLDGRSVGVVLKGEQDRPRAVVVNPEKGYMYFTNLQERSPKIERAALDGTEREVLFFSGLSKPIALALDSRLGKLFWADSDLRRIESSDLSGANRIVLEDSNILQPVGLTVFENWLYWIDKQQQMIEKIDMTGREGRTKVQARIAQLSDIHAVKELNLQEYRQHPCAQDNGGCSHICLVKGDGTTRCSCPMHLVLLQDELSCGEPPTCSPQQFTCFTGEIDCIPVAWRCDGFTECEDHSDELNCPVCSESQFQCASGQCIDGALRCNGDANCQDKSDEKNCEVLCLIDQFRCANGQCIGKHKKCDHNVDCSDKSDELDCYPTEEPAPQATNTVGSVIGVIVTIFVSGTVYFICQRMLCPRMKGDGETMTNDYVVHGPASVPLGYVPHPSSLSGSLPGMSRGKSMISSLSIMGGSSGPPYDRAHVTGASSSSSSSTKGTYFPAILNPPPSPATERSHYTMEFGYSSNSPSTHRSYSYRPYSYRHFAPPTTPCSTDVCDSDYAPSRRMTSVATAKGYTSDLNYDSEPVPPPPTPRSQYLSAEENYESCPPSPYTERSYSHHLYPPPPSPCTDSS
F-box only protein 22: F-box only protein 22 (Homo sapiens, UniProt Q8NEZ5)
Chain of UniProt Q9H4M9 (whole entry, looked up): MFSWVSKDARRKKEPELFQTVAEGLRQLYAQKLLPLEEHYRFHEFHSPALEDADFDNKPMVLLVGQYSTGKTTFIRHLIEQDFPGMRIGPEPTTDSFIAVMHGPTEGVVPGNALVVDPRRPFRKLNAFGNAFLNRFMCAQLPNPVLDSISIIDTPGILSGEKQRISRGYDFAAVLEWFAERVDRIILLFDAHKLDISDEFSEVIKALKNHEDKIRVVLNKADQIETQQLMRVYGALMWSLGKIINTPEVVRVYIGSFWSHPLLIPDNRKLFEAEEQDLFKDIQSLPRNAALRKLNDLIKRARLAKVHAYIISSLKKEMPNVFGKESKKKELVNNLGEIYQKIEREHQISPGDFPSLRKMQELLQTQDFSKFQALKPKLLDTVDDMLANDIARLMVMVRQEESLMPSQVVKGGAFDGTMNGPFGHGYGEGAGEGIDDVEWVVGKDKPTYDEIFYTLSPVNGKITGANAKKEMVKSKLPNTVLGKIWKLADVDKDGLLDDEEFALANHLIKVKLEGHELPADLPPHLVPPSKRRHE
Chain of UniProt Q8NEZ5 (whole entry, looked up): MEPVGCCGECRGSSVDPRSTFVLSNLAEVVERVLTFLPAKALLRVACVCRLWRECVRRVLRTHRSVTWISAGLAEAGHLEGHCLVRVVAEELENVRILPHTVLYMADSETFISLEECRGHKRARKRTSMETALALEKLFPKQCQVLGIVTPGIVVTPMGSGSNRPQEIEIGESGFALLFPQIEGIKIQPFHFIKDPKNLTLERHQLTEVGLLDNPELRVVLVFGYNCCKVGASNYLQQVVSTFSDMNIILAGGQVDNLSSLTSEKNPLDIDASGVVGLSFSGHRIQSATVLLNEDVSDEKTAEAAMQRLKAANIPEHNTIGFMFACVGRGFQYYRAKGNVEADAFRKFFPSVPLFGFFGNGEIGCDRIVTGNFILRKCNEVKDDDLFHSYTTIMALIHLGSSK
Chain of UniProt P30048 (whole entry, looked up): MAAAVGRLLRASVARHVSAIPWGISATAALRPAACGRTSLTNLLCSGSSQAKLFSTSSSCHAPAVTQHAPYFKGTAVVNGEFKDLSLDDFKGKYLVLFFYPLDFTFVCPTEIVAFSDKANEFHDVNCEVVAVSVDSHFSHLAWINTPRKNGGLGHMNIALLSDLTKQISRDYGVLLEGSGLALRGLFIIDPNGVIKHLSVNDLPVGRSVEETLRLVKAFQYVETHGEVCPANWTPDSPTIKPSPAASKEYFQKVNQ
Chain of UniProt P97287 (152-308, looked up): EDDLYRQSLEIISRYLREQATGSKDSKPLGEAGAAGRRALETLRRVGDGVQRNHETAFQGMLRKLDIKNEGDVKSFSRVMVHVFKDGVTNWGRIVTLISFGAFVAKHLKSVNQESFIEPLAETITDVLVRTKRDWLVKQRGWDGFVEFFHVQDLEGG
Chain of UniProt P46109 (whole entry, looked up): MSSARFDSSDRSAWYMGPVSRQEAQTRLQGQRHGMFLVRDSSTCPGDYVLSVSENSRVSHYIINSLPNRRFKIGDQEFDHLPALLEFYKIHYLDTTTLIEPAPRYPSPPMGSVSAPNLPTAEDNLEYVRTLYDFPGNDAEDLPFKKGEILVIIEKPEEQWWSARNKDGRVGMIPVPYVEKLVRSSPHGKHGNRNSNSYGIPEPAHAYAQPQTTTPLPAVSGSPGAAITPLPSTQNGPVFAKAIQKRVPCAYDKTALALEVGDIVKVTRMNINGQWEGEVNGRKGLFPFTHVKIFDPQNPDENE
Chain of UniProt Q02750 (whole entry, looked up): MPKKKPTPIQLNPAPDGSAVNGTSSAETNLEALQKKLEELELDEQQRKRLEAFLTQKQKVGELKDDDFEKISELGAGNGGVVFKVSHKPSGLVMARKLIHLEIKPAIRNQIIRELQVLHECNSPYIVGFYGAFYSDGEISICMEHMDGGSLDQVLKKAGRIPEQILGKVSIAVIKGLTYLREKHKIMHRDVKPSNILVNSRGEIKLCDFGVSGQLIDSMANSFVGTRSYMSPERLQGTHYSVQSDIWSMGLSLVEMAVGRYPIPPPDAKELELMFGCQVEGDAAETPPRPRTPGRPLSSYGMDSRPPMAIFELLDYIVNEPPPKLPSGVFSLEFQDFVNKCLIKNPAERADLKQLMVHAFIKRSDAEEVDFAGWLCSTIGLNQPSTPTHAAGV
Chain of UniProt Q14145 (whole entry, looked up): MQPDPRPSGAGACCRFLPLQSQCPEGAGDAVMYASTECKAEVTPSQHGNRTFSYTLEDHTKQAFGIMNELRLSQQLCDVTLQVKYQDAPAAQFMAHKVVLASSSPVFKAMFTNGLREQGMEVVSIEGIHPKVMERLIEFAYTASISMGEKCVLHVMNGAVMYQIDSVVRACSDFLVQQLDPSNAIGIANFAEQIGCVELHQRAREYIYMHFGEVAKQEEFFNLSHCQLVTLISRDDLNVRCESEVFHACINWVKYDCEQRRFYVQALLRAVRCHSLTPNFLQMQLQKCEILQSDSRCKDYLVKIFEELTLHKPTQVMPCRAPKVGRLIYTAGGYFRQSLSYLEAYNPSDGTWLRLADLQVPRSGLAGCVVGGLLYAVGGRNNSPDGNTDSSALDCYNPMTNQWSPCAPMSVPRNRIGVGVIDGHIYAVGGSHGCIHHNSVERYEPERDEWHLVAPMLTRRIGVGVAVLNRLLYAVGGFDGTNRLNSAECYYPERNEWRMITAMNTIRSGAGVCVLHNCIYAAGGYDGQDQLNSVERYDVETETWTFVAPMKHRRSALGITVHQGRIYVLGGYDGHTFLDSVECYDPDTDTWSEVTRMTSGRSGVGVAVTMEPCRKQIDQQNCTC
Chain of UniProt Q9BY67 (whole entry, looked up): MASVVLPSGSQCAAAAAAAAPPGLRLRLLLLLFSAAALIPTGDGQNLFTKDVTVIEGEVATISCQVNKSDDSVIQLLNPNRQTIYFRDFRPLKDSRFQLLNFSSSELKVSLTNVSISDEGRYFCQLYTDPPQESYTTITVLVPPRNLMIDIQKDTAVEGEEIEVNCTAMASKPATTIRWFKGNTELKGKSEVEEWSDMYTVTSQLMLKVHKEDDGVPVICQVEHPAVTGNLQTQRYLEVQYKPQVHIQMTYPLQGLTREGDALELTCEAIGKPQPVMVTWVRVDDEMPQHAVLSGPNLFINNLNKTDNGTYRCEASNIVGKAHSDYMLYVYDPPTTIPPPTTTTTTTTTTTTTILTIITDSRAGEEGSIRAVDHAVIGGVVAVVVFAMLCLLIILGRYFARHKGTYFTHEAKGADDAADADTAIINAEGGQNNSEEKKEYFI

Compound = CC(=O)N[C@@H](CCCNC(=N)N)C(=O)N[C@H](C(=O)N1CCC[C@H]1C(=O)N[C@@H](COP(=O)(O)O)C(=O)N[C@@H](CC(C)C)C(=O)N1CCC[C@H]1C(=O)N[C@H](C(=O)N1CCC[C@H]1C(c1ccccc1)c1ccccc1)[C@@H](C)O)[C@@H](C)O; target = YWHAZ; test = isothermal titration calorimetry; Kd = 4150 ± 450 nM
Compound = CC[C@H](C)[C@H](NC(=O)[C@H](CCC(=O)O)NC(=O)[C@H](CCCNC(=N)N)NC(=O)[C@H](C)NC(=O)[C@H](Cc1c[nH]c2ccccc12)NC(=O)[C@H](CCC(=O)O)NC(=O)[C@H](CCC(=O)O)NC(=O)[C@H](CCC(=O)O)NC(C)=O)C(=O)NCC(=O)N[C@@H](CC(C)(C)C)C(=O)N[C@@H](CCC(N)=O)C(=O)N[C@@H](CC(C)C)C(=O)N[C@@H](CCCNC(=N)N)C(=O)N[C@@H](CCCNC(=N)N)C(=O)N[C@@H](C)C(=O)N[C@@H](C)C(=O)N[C@@H](CC(=O)O)C(=O)N[C@@H](CC(=O)O)C(=O)N[C@@H](CC(C)C)C(=O)N[C@@H](CC(N)=O)C(=O)N[C@@H](C)C(=O)N[C@@H](CCC(N)=O)C(=O)N[C@@H](Cc1ccc(O)cc1)C(=O)N[C@@H](CCC(=O)O)C(=O)N[C@@H](CCCNC(=N)N)C(=O)N[C@@H](CCCNC(=N)N)C(=O)N[C@@H](CCCNC(=N)N)C(N)=O; target = Induced myeloid leukemia cell differentiation protein Mcl-1 homolog, residues 152-308 (Mus musculus, UniProt P97287); test = binding, SPR; setting = 0.2% DMSO; Kd = 0.36 nM
Compound = CC(=O)N[C@@H](Cc1ccc(O)cc1)C(=O)N[C@@H](CC(N)=O)C(=O)N1CCC[C@H]1C(=O)N[C@@H](Cc1ccccc1)C(=O)N[C@@H](CCC(=O)O)C(=O)N[C@@H](CCC(=O)O)C(=O)NCC(=O)NCC(N)=O; target = EH domain-containing protein 1, EH domain (Homo sapiens, UniProt Q9H4M9); test = peptide binding, ITC; setting = 20 °C, 150 mM NaCl; Kd = 33900 nM and 33300 nM and 40000 nM
Compound = CC[C@H](C)[C@H](NC(=O)[C@@H](N)CCCCN)C(=O)N1CCC[C@H]1C(=O)N[C@@H](Cc1ccc(O)cc1)C(=O)N[C@@H](Cc1ccccc1)C(=O)N[C@@H](Cc1c[nH]cn1)C(=O)N[C@@H](C)C(=O)NCC(=O)NCC(=O)N[C@@H](CO)C(=O)N[C@@H](CCCCN)C(=O)N[C@@H](CS)C(=O)N[C@@H](CO)C(=O)N[C@H](C(=O)N[C@@H](Cc1ccc(O)cc1)C(=O)N1CCC[C@H]1C(=O)N[C@@H](CC(C)C)C(=O)N1CCC[C@H]1C(=O)N[C@@H](CCC(N)=O)C(=O)N1CCC[C@H]1C(=O)N[C@@H](CO)C(=O)O)[C@@H](C)OP(=O)(O)O; target = YWHAZ; test = ITC; setting = 37 °C, one-site fit, poor fit, added: phosphorylated PRLR peptide; Kd = 3200 ± 400 nM
Compound = CC[C@H](C)[C@@H]1NC(=O)[C@@H]2CCCN2C(=O)[C@H](Cc2c[nH]c3ccccc23)NC(=O)[C@H](CO)NC(=O)[C@H](Cc2c[nH]c3ccccc23)NC(=O)[C@H](CC(N)=O)NC(=O)[C@H](CCCCN)NC(=O)[C@H](CCSC)NC(=O)[C@@H]2CSCCC(=O)N3CN(CN(C3)C(=O)CCSC[C@H](NC(=O)[C@H](C)N)C(=O)N3CCC[C@H]3C(=O)N[C@@H](Cc3ccccc3)C(=O)NCC(=O)N2)C(=O)CCSC[C@@H](C(=O)N[C@H](C(=O)N[C@@H](CC(N)=O)C(=O)N[C@@H](CCCCN)C(=O)N(C)CC(=O)N(C)CC(=O)N(C)CC(=O)N(C)CC(=O)N(C)CC(=O)N(C)CC(=O)N[C@@H](CCCCNC(=O)c2ccc(C(=O)O)c(-c3c4ccc(=O)cc-4oc4cc(O)ccc34)c2)C(N)=O)[C@@H](C)O)NC(=O)[C@H](Cc2c[nH]c3ccccc23)NC1=O; target = Cell adhesion molecule 1 (CADM1, Homo sapiens, UniProt Q9BY67); test = fluorescence polarization; Kd = > 2000 nM
Compound = CC(C)C[C@@H]1NC(=O)CNC(=O)[C@H](Cc2c[nH]cn2)NC(=O)[C@H](C)NC(=O)[C@H](CO)NC(=O)[C@H](CCC(N)=O)NC(=O)[C@@H](NC(=O)CN)CSSC[C@@H]2NC(=O)CNC(=O)[C@H](C)NC(=O)[C@H](CC(C)C)NC(=O)[C@@H]3CSSC[C@@H](C(=O)NCC(=O)O)NC(=O)[C@H](Cc4ccccc4)NC(=O)CNC(=O)[C@H](CC(N)=O)NC(=O)[C@@H]4CCCN4C(=O)CNC(=O)[C@H](CSSC[C@H](NC(=O)[C@H](CCCNC(=N)N)NC(=O)[C@H](CC(N)=O)NC(=O)[C@H](Cc4c[nH]cn4)NC(=O)[C@H](CCCCN)NC1=O)C(=O)N[C@@H](CCCCN)C(=O)N[C@@H](CCC(N)=O)C(=O)N[C@@H](CC(=O)O)C(=O)N[C@@H](CO)C(=O)N[C@@H](CC(=O)O)C(=O)N3)NC(=O)[C@H](C(C)C)NC2=O; target = LRP6 E1 domain; test = binding, SPR; setting = pH 7.5; Kd = > 1000 nM
Compound = CC(C)[C@H](NC(=O)[C@H](C)NC(=O)CNC(=O)[C@H](C)NC(=O)[C@H](CC(=O)O)NC(=O)[C@H](CC(=O)O)NC(=O)[C@H](C)NC(=O)[C@@H]1CCCN1C(=O)[C@H](CCCCN)NC(=O)CNC(=O)[C@@H]1CCCN1C(=O)[C@@H]1CCCN1C(=O)[C@@H]1CCCN1C(=O)[C@H](CCC(=O)O)NC(=O)CN)C(=O)O; target = F-box only protein 22; test = binding, SPR; Kd = 22000 nM
Compound = CC(C)C[C@H](NC(=O)[C@H](CCCNC(=N)N)NC(=O)[C@H](CO)NC(=O)[C@H](CC(N)=O)NC(=O)c1ccc2c(c1)C(=O)OC21c2ccc(N(C)C)cc2Oc2cc(N(C)C)ccc21)C(=O)NCC(=O)N[C@@H](CC(N)=O)C(=O)NCC(=O)N[C@H](C(=O)N[C@@H](CC(C)C)C(=O)N[C@@H](Cc1ccc(OP(=O)(O)O)cc1)C(=O)N[C@@H](C)C(=O)N[C@@H](CO)C(=O)N[C@H](C(=O)N[C@@H](CC(N)=O)C(=O)N1CCC[C@H]1C(=O)N[C@@H](CCC(=O)O)C(=O)N[C@@H](Cc1ccc(O)cc1)C(=O)N[C@@H](CC(=O)O)C(=O)O)C(C)C)C(C)C; target = Crk-like protein, SH2 domain (Homo sapiens, UniProt P46109); test = binding; Kd = 1860 nM
Compound = CC[C@H](C)[C@H](NC(=O)[C@H](CO)NC(=S)Nc1ccc2c(c1)C(=O)OC21c2ccc(O)cc2Oc2cc(O)ccc21)C(=O)N[C@@H](CCC(=O)O)C(=O)N[C@@H](CCCCN)C(=O)NCC(=O)NCC(=O)N[C@@H](CCP(=O)(O)O)C(=O)N[C@@H](CC(C)C)C(=O)N1CCC[C@H]1C(=O)N[C@@H](CCCCN)C(=O)N[C@H](C(=O)N[C@@H](Cc1c[nH]c2ccccc12)C(=O)N[C@@H](CC(C)C)C(=O)N[C@H](C(=O)N1CCC[C@H]1C(=O)N[C@@H](CCCNC(=N)N)C(=O)O)C(C)C)C(C)C; target = 14-3-3 protein sigma (SFN, Homo sapiens, UniProt P31947); test = binding, fluorescence anisotropy; setting = pH 7.5, FITC-labelled phosphopeptide titration; Kd = 268000 nM
Compound = CC(=O)N[C@@H](CCCNC(=N)N)C(=O)N[C@H](C(=O)N1CCC[C@H]1C(=O)N[C@@H](COP(=O)(O)O)C(=O)N[C@@H](CC(C)C)C(=O)N1CCC[C@H]1C(=O)N[C@H](C(=O)N1CCC[C@H]1C(c1ccccc1)c1ccccc1)C(C)C)[C@@H](C)O; target = YWHAZ; test = isothermal titration calorimetry; setting = second duplicate; Kd = 2400 nM
Compound = C[C@@H](O)[C@@H]1NC(=O)[C@H](CCC(=O)O)NC(=O)[C@@H]2CC(C(F)(F)F)CN2C(=O)[C@H](CC(=O)O)NC(=O)CC(C(F)(F)F)NC(=O)[C@H](CCC(=O)O)NC(=O)CNC1=O (some centres unmarked); target = Kelch-like ECH-associated protein 1 (KEAP1, Homo sapiens, UniProt Q14145); test = binding, MST; Kd = 32.2 nM
Compound = O=C(N[C@@H]1c2ccccc2C[C@H]1N1CCCC1)c1ccc(-c2ccnc3[nH]ccc23)nc1; target = Dual specificity mitogen-activated protein kinase kinase 1 (MAP2K1, Homo sapiens, UniProt Q02750); test = binding, competition with immobilised ligand; Kd = 1900 nM
Compound = CC[C@H](C)[C@@H]1NC(=O)[C@H](Cc2c[nH]cn2)NC(=O)[C@H](CC(N)=O)NC(=O)[C@H](CO)NC(=O)[C@H](CCC(N)=O)NC(=O)[C@@H](NC(=O)CN)CSSC[C@@H]2NC(=O)CNC(=O)[C@H](C)NC(=O)[C@H](CC(C)C)NC(=O)[C@@H]3CSSC[C@@H](C(=O)NCC(=O)O)NC(=O)[C@H](Cc4ccccc4)NC(=O)CNC(=O)[C@H](CC(N)=O)NC(=O)[C@@H]4CCCN4C(=O)CNC(=O)[C@H](CSSC[C@H](NC(=O)[C@H](CCCNC(=N)N)NC(=O)[C@H](CC(N)=O)NC(=O)[C@H](Cc4c[nH]cn4)NC(=O)[C@H](CCCCN)NC(=O)[C@H](CC(C)C)NC1=O)C(=O)N[C@@H](CCCCN)C(=O)N[C@@H](CCC(N)=O)C(=O)N[C@@H](CC(=O)O)C(=O)N[C@@H](CO)C(=O)N[C@@H](CC(=O)O)C(=O)N3)NC(=O)[C@H](C(C)C)NC2=O; target = LRP6 E1 domain; test = binding, SPR; setting = pH 7.5; Kd = 1.01 nM
Compound = CC(C)C[C@H](NC(=O)[C@H](CCCCN)NC(=O)CNC(=O)[C@H](Cc1ccccc1)NC(=O)[C@H](CO)NC(=O)[C@H](Cc1c[nH]c2ccccc12)NC(=O)CNC(=O)[C@@H]1CCCN1C(=O)[C@@H](N)CC(=O)O)C(=O)N[C@@H](Cc1c[nH]cn1)C(=O)N[C@@H](Cc1c[nH]c2ccccc12)C(=O)N1CCC[C@H]1C(=O)O; target = V-type immunoglobulin domain-containing suppressor of T-cell activation, IgV domain (VSIR, Homo sapiens, UniProt Q9H7M9); test = binding, microscale thermophoresis; Kd = 19 nM
Compound = CC(=O)NC1C(O)OC(CO)C(OC2OC(CO)C(OC3OC(CO)C(O)C(O)C3O)C(O)C2O)C1O (centres unmarked); target = sly (Streptococcus suis, UniProt Q55996, D394A); test = binding; Kd = 780 nM
Compound = C=CC1CN2CCc3c([nH]c4ccccc34)C2CC1C(=COC)C(=O)OC (centres unmarked); target = Thioredoxin-dependent peroxide reductase, mitochondrial (PRDX3, Homo sapiens, UniProt P30048); test = binding, SPR; Kd = 1490 nM
Compound = CC(C)C[C@H](NC(=O)CNC(=O)[C@H](C)NC(=O)[C@H](C)NC(=O)[C@H](CC(=O)O)NC(=O)[C@H](C)NC(=O)[C@@H]1CCCN1C(=O)[C@H](CCCCN)NC(=O)CNC(=O)[C@@H]1CCCN1C(=O)[C@@H]1CCCN1C(=O)[C@@H]1CCCN1C(=O)[C@H](CCC(=O)O)NC(=O)CN)C(=O)N[C@H](C(=O)O)C(C)C; target = F-box only protein 22; test = binding, SPR; Kd = 31000 nM

Repeated from above:
Compound = CC(=O)N[C@@H](Cc1ccc(O)cc1)C(=O)N[C@@H](CC(N)=O)C(=O)N1CCC[C@H]1C(=O)N[C@@H](Cc1ccccc1)C(=O)N[C@@H](CCC(=O)O)C(=O)N[C@@H](CCC(=O)O)C(=O)NCC(=O)NCC(N)=O; target = EH domain-containing protein 1, EH domain (Homo sapiens, UniProt Q9H4M9); test = peptide binding, ITC; setting = 20 °C, 150 mM NaCl; Kd = 33900 nM and 33300 nM and 40000 nM
